Assay results pooled from the literature.
Lines come from different studies, so protocols differ.
Cell line: SN12C

C#C[C@@]1(O)[C@@H](CO)O[C@@H](n2cc(I)c3c(N)ncnc32)[C@@H]1O  TGI (SRB; NCI-60 screen): > 100 µM
CCCN1CCN(c2ccc3nc(-c4ccc5nc(-c6cc(OC)ccc6OC)[nH]c5c4)[nH]c3c2)CC1  growth percent (SRB; 10 µM, 48 h): 99.2%
Cc1cc(=O)[nH]n1-c1nc(-c2ccc(Cl)cc2)c2c(NC(=O)c3ccccc3)nnc-2[nH]1  cell growth (SRB; 10 µM, NCI60 single-dose screen; relative to: untreated): 91.6%
CN1CCN(c2ccc3[nH]c(-c4ccc5[nH]c(-c6ccc(C(F)(F)F)cc6)nc5c4)nc3c2)CC1  growth percent (SRB; 10 µM, 48 h): 80.3%
CC(=O)O[C@H]1C(=O)[C@@]2(C)[C@H]([C@H](OC(=O)c3ccccc3)[C@]3(O)C[C@H](OC(=O)[C@H](O)[C@@H](NC(=O)c4ccccc4)c4ccccc4)C(C)=C1C3(C)C)[C@]1(OC(C)=O)CO[C@@H]1C[C@@H]2O  TGI (sulforhodamine B; Renal cancer; NCI60 screen): 1 µM
CCCCN1CCN(c2ccc3nc(-c4ccc5nc(-c6cc(OC)ccc6OC)[nH]c5c4)[nH]c3c2)CC1  growth percent (SRB; 10 µM, 48 h): 99.1%
S=C([S][Au-][P+](CCCCCC[P+]([Au-][S]C(=S)n1cccn1)(c1ccccc1)c1ccccc1)(c1ccccc1)c1ccccc1)n1cccn1  log10 TGI (cell growth, NCI-60 screen; renal cancer): > -4
Cn1cncc1C1=CN(c2ncnc3[nH]cnc23)CCS1  TGI (renal cancer): 67.6 µM
C#C[C@@]1(O)[C@@H](CO)O[C@@H](n2ccc3c(N)ncnc32)[C@@H]1O  TGI (SRB; NCI-60 screen): 3.91 µM
CCOC(=O)CSc1nc(-c2ccc(Cl)cc2)c2c(NC(=O)c3ccccc3)nnc-2[nH]1  cell growth (SRB; 10 µM, NCI60 single-dose screen; relative to: untreated): 97.9%
CCCN1CCN(c2ccc3[nH]c(-c4ccc5[nH]c(-c6ccc(OCC)c(OCC)c6)nc5c4)nc3c2)CC1  growth percent (SRB; 10 µM, 48 h): -37.5%
CSc1nc(-c2ccc(Cl)cc2)c2c(NC(=O)c3ccccc3)nnc-2[nH]1  cell growth (SRB; 10 µM, NCI60 single-dose screen; relative to: untreated): 92.4%
O=C1NCCc2[nH]c(-c3ccncc3)cc21  IC50 (MTS; NCI60 panel): 10 µM
Cc1cc(-c2ccccc2)n(-c2nc(-c3ccc(Cl)cc3)c3c(NC(=O)c4ccccc4)nnc-3[nH]2)n1  cell growth (SRB; 10 µM, NCI60 single-dose screen; relative to: untreated): 87.1%
CCCCN1CCN(c2ccc3[nH]c(-c4ccc5[nH]c(-c6cc(OC)c(OC)c(OC)c6)nc5c4)nc3c2)CC1  growth percent (SRB; 10 µM, 48 h): 80.2%

Some of these lines once more:
C#C[C@@]1(O)[C@@H](CO)O[C@@H](n2ccc3c(N)ncnc32)[C@@H]1O  TGI (SRB; NCI-60 screen): 3.91 µM
